Measured values from different studies.
Parts stem from different laboratories: compare values within a part only. Substitutions count along the parent as printed.

Sample 1 — technique: protein-binding microarray; form: double-stranded DNA, one strand shown; matrix: in vitro; tested at: 250 nM; notes: 60-bp whole probe; together with: salmon DNA 0.4 mg/ml; baseline: random background probes; reading: higher = stronger binding; constant ends, left off below: GCCTAGCAC … GTCTTGATTCGCTTGACGCTGCTG
Target: Interferon regulatory factor 5, full length, phosphomimetic (IRF5, Homo sapiens, UniProt Q13568-2, residues 1-514, K96S/S451D/S453D/S456D/S462D)
Oligonucleotide | log fluorescence [z-score]
TTAGAACTGAGTTTCAATTAGTGCTAG | 2.39
GTATATATGTGTATATATAAGTGCTAG | 0.67
GACGGTCTCATACTGCTGACGTGCTAG | -0.375
CCTCCTCTCTCTTTCCACTTGTGCTAG | 0.565
GTCGGACTGCTTCTCCTGACGTGCTAG | -0.238
ACAGCCTTTCTAACTTGAAAGTGCTAG | 0.375
TCACCTATCAGTTTAATACTGTGCTAG | 1.44
TTAAATTTCAGTTCCGATTAGTGCTAG | 3.78
TTTGGTTTCGGGTATCGGTTAGTGCTA | 9.92

Sample 2 — target: TEF, bZIP domain (human); technique: DHFR protein complementation; matrix: yeast; baseline: wild-type JUN-FOS pair; reading: higher = stronger binding
Notes: single substitutions, most at no-binding floor
Starting sequence: JUN, bZIP domain (human); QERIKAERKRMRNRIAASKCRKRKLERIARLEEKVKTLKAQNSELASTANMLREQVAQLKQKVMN; partner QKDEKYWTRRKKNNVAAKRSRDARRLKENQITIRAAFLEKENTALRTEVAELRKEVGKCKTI
Variant | binding fitness [natural log]
E44D | -1.3
R30T | -1.4
E54G | -1.29
A40G | -1.38
R53F | -1.18
T48V | -1.45
E54S | -1.45

Sample 3 — target: CCNE1, cyclin fold, Cln2 fusion (human); technique: yeast growth competition, sequencing; matrix: yeast; notes: strong parent motif; baseline: not given; reading: higher = stronger binding
Starting sequence: INSM1 docking peptide (human); PKAIRKLHFEDEV; partner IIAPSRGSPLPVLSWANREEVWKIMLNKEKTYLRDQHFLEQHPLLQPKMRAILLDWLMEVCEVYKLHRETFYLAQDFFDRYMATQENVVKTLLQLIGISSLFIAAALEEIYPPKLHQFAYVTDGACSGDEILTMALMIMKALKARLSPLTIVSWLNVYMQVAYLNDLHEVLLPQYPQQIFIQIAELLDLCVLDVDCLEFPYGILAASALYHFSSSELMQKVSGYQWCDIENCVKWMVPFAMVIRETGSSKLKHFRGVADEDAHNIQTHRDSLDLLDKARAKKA
Variant | normalised enrichment score
L7F | -0.412
K2N | 4.67
R5K | 1.62
E10M | 2.59
K6M | 3.01
R5T | 0.122
H8C | 5.77
H8R | 3.21

Mixed results
Molecule | target | assay | test system | setting | scale | endpoint | value
PhoQ, residues 284 288 289 292 302 303 TLSLKA | PhoP, residues 12 14 15 18 19 VQALL (Escherichia coli, UniProt P23836) | Sort-seq, measured: YFP reporter | E. coli | PhoQ-PhoP variant library, together with: 10 µM Mg2+ | baseline: high Mg2+ state, higher = stronger signaling | fold induction | 36.8
